# Assay results gathered from unrelated publications.
# Protocols differ between the studies behind these lines. Numbers after ± are the reported error.
# Cell line: WI-38
SMILES,assay,conditions,IC50
CCCN1CCN(CC(=O)N2CCN(c3cc(C)nc4ncnn34)CC2)CC1,cell growth or viability,,32.8 µM
CCN1CCC2(CC1)C/C(=N\N=C\c1ccc(O)cc1)c1ccccc1O2,cell growth or viability,,47.5 µM
CC1=NNC(c2cn(CC(=O)Nc3nc(-c4ccccc4)cs3)nn2)C1 (centres unmarked),"cell growth or viability, MTT",72 h,0.384 µM
Cc1nn(-c2ccc(S(=O)(=O)N[C@H](CO)CC(C)C)cc2)c2nn3nnnc3nc12,"cell growth or viability, MTT",72 h,1.21 µM
N=C(N)Nc1nc2ccccc2o1,"cell growth or viability, MTT",24 h,> 500 µM
Cc1cc(N2CCN(C(=O)CN3CCN(c4ccccc4)CC3)CC2)n2ncnc2n1,cell growth or viability,,43.9 µM
O=C(/C=C/c1ccc(O)cc1)OCCCC[P+](c1ccccc1)(c1ccccc1)c1ccccc1,"cell growth or viability, SRB",24 h,270 µM
O=C(Cn1cc(/C=C/C(=O)c2ccccc2)nn1)Nc1nc(-c2ccccc2)cs1,"cell growth or viability, MTT",72 h,1.61 µM
CCN1CCC2(CC1)C/C(=N\NC(=O)Nc1ccc(OC)cc1)c1ccccc1O2,cell growth or viability,,83.5 µM
CSC(=S)N/N=C(\C)c1ccc(S(=O)(=O)N2CCC(C)CC2)cc1,cell growth or viability,,86.3 µM
CCN1CCC2(CC1)C/C(=N\NC(=O)Nc1ccccc1)c1ccccc1O2,cell growth or viability,,65.6 µM
N=C(N)Nc1nc2ccccc2s1,"cell growth or viability, MTT",24 h,> 500 µM
CSC(=NN=C(C)c1ccc(S(=O)(=O)N2CCC(C)CC2)cc1)N(C)C,cell growth or viability,,86.5 µM
COc1cc(/C=C/C(=O)OCCCC[P+](c2ccccc2)(c2ccccc2)c2ccccc2)ccc1O,"cell growth or viability, SRB",48 h,53.5 µM
CCN1CCC2(CC1)C/C(=N\NC(=O)Nc1ccc([N+](=O)[O-])cc1)c1ccccc1O2,cell growth or viability,,57.5 µM
Cc1c(C(=O)NNC(=S)Nc2ccc(Cl)cc2)nnn1Cc1nc2ccccc2[nH]1,cell viability,,37.2 ± 2.4 µM
O=C(/C=C/c1ccccc1)OCCCC[P+](c1ccccc1)(c1ccccc1)c1ccccc1,"cell growth or viability, SRB",24 h,126 µM
O=C(CCl)Sc1nnc(-c2n[nH]c(=O)c3ccccc23)o1,"cell growth or viability, MTT",48 h,72.4 µM
CCN1CCC2(CC1)C/C(=N\NC(=O)Nc1ccc(C)cc1)c1ccccc1O2,cell growth or viability,,100 µM
O=C(/C=C/c1ccc(O)c(O)c1)OCCCC[P+](c1ccccc1)(c1ccccc1)c1ccccc1,"cell growth or viability, SRB",24 h,124 µM

# Some of these lines once more:
SMILES,assay,conditions,IC50
CCN1CCC2(CC1)C/C(=N\NC(=O)Nc1ccccc1)c1ccccc1O2,cell growth or viability,,65.6 µM
N=C(N)Nc1nc2ccccc2s1,"cell growth or viability, MTT",24 h,> 500 µM
